# Assay results from different studies.
# Protocols differ between the studies behind these lines. ± marks the error that the study gave.
# Caspase-2 circularly permuted: Caspase-2, circularly permuted (Homo sapiens, UniProt P42575)
# UniProt P42575, sequence (whole entry, unmodified, looked up): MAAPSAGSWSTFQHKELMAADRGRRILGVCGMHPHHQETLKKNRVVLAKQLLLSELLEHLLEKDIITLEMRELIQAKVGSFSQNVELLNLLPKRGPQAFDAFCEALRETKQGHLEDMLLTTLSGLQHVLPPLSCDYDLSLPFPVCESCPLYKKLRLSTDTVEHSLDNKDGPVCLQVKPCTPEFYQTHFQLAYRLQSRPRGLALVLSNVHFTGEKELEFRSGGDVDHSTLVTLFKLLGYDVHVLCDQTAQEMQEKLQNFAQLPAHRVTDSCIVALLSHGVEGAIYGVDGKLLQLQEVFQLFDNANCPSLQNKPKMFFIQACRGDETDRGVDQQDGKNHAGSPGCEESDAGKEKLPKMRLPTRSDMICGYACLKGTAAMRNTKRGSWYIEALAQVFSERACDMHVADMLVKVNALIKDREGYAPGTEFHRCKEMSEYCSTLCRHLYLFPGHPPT
# UniProt P70698, sequence (whole entry, looked up): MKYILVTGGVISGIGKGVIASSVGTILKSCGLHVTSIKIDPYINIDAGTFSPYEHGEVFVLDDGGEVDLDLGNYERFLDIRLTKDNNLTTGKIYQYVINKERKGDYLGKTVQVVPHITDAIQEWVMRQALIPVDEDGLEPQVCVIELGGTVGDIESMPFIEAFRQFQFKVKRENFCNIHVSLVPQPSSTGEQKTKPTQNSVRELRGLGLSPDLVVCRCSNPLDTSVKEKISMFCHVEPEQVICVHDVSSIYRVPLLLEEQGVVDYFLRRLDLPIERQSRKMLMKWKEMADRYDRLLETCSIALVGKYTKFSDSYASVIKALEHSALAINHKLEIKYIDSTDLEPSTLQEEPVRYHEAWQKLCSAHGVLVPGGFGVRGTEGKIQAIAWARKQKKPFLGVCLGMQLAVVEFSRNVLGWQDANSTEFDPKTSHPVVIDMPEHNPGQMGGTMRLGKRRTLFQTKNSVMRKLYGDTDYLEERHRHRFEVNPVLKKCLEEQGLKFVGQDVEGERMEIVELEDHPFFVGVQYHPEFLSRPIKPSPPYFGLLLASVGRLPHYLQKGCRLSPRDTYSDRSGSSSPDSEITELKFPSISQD
# UniProt P14061, sequence (whole entry, looked up): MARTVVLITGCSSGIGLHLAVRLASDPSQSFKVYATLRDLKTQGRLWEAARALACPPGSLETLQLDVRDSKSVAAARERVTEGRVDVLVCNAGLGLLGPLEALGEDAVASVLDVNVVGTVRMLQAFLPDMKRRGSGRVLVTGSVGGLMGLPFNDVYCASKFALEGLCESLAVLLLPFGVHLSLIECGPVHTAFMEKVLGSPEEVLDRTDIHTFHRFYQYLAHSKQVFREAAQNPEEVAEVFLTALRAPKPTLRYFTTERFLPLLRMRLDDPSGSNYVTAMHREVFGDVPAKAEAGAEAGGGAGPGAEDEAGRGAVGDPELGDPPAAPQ
# UniProt P21397, sequence (whole entry, looked up): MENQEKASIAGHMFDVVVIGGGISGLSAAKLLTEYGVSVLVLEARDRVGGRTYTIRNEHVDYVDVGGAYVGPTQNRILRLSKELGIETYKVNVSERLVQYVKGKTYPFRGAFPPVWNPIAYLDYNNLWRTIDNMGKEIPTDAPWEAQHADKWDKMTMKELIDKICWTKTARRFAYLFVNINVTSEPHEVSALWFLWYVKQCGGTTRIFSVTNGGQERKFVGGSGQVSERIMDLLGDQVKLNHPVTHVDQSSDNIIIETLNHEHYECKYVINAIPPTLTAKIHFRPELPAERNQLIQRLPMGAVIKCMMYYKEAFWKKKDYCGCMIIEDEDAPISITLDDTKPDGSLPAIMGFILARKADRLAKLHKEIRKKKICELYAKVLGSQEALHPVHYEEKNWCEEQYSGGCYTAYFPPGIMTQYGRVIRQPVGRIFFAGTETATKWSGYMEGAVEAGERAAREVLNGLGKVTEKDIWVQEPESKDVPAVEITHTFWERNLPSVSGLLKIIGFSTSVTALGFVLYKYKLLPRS
# UniProt Q14145, sequence (whole entry, looked up): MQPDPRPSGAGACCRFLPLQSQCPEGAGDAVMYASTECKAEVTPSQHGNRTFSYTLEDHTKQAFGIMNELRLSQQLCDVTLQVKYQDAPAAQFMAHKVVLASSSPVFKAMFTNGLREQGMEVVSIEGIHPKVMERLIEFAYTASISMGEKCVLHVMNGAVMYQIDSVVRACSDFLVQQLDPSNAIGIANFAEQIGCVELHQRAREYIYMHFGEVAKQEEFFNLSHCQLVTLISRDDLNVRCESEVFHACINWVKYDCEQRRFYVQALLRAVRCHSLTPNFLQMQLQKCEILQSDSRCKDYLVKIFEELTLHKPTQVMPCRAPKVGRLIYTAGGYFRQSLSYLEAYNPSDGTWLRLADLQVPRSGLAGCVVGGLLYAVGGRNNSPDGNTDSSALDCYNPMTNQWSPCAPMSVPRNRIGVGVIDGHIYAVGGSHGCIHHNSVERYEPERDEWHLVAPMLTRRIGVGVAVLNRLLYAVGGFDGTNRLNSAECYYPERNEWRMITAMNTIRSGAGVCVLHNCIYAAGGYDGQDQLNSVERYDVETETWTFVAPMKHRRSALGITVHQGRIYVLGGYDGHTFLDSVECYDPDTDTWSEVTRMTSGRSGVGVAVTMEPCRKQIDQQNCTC
# UniProt P09884, sequence (whole entry, looked up): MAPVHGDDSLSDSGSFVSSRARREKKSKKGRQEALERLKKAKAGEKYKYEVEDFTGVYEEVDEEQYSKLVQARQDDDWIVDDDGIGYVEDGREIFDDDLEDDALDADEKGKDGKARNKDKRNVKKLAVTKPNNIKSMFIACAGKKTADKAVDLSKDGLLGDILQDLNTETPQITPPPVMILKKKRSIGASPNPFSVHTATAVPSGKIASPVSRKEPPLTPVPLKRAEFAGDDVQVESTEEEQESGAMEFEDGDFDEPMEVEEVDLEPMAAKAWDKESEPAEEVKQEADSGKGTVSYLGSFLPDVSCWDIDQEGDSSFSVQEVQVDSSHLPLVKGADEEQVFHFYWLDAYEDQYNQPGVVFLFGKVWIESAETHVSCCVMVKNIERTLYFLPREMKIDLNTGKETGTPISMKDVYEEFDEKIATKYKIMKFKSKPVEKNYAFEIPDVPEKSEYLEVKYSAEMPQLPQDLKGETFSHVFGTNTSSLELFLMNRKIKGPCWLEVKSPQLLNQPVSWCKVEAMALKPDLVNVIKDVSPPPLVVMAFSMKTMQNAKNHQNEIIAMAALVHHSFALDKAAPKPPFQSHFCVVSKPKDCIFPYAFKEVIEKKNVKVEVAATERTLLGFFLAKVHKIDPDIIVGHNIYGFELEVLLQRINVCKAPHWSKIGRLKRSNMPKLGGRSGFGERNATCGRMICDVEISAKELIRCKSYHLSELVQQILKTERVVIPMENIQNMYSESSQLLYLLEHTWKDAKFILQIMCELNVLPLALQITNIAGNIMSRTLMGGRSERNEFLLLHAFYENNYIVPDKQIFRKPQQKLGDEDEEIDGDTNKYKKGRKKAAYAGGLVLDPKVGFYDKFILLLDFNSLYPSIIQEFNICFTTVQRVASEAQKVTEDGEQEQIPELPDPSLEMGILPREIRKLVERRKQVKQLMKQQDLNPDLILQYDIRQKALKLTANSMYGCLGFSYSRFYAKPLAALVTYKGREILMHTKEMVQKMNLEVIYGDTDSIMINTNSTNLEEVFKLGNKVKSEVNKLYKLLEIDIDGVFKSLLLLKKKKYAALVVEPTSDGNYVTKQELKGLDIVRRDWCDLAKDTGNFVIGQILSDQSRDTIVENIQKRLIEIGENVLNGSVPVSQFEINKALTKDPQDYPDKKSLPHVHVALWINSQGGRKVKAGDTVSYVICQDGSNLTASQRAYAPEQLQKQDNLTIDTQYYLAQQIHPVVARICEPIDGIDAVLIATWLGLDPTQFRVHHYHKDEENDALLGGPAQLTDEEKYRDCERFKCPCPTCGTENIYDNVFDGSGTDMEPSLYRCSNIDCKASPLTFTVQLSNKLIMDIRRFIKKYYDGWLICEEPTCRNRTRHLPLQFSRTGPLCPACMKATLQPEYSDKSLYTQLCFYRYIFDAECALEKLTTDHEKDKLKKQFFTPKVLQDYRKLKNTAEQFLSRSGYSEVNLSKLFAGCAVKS
# UniProt O95166, sequence (whole entry, looked up): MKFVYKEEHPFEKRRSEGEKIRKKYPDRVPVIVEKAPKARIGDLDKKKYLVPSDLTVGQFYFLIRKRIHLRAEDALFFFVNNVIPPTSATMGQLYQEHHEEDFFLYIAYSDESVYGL
# UniProt Q08499, sequence (whole entry, looked up): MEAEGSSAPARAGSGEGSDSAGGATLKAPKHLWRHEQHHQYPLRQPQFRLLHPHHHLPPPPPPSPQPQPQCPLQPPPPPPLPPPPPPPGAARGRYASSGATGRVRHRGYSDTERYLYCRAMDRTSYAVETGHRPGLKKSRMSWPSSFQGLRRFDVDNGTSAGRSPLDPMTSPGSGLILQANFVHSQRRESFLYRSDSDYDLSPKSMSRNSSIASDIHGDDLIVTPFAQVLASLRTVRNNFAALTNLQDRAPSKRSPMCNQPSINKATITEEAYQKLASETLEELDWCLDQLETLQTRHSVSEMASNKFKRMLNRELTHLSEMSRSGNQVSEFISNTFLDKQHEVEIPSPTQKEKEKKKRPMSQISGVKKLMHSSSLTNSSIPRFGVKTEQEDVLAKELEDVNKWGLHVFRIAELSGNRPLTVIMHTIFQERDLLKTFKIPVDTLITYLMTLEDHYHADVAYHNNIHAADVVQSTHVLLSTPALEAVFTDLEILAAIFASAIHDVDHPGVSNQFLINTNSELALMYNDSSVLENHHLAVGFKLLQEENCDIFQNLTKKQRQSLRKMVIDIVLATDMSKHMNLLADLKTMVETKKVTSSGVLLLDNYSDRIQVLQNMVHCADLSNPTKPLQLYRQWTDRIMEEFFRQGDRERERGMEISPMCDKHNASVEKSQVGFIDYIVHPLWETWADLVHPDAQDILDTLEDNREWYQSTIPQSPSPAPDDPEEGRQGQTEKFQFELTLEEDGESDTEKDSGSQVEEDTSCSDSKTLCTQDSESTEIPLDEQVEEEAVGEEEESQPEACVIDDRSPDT
Structure (SMILES),tested on,assay,test system,setting,quantity,value
CCOC(=O)c1cc2c(N)c(C(=O)OC)sc2nc1C,"Urea transporter 1 (Mus musculus, UniProt Q8VHL0)","transporter uptake, inhibitor",,,IC50,2.01 µM
C[C@H](NC(=O)[C@H](CC(=O)NCC(C)(C)C)NC(=O)C(=O)c1c[nH]c2ccccc12)C(=O)NCc1ccc(F)cc1F,"Proteasome subunit beta type-3/PSMB7 (Homo sapiens, UniProt P49720+Q99436)",inhibitor,,,IC50,> 100 µM
CC(=O)N[C@H](C(=O)N[C@@H](CC(=O)O)C(=O)N[C@H](CCCCN)C(=O)N[C@@H](C)C(=O)N[C@H](C=O)CC(=O)O)C(C)C,Caspase-2 circularly permuted,"enzyme activity, inhibitor",,"pH 6.5, 37 °C, added: Z-VDVAD-AFC",Ki,49 µM
CC[C@H](C)[C@H](NC(=O)[C@H](CCCNC(=N)N)NC(=O)[C@H](CC(N)=O)NC(=O)[C@H](C)NC(=O)[C@H](Cc1c[nH]cn1)NC(=O)[C@@H](NC(=O)[C@H](CCC(N)=O)NC(=O)[C@@H]1CCCN1C(=O)[C@@H](N)CC(=O)O)[C@@H](C)O)C(=O)N[C@@H](Cc1ccc(O)cc1)C(=O)N[C@@H](CCCNC(=N)N)C(=O)N[C@@]1(C)CCCC=CCCC[C@@](C)(C(=O)N[C@@H](CC(C)C)C(=O)NCC(=O)O)NC(=O)[C@H](CC(C)C)NC(=O)[C@H](CCCCN)NC(=O)[C@H]([C@@H](C)CC)NC1=O,Hsp90,"luciferase refolding, inhibitor",rabbit reticulocyte lysate,added: heat-denatured luciferase,IC50,37.9 ± 4 µM
O=c1[nH]c(=O)c2ncn(CCOCP(=O)(O)OP(=O)(O)OP(=O)(O)O)c2[nH]1,"POLA1 (Homo sapiens, UniProt P09884)","enzyme activity, inhibitor, radiometric",,,IC50,> 100 µM
Oc1ccc(C#Cc2cccc3c2C(c2ccc(O)cc2)(c2ccc(O)cc2)c2cc(O)ccc2-3)cc1,"PDE4D (Homo sapiens, UniProt Q08499)","enzyme activity, inhibitor, fluorescence",,,IC50,0.18 µM
O=C1Nc2ccc(I)cc2C1=Cc1ccc(O)cc1,"Gamma-aminobutyric acid receptor-associated protein (Homo sapiens, UniProt O95166)","binding to K1 peptide, inhibitor, AlphaScreen",,,IC50,> 10 µM
C[C@]12CC[C@@H]3c4ccc(OCc5ccccc5)cc4CC[C@H]3[C@@H]1[C@H](OCCC(N)=O)CC2=O,"HSD17B1 (Homo sapiens, UniProt P14061)","enzyme activity, inhibitor, radiometric",,,IC50,0.78 to 1.5 µM
N#Cc1cnc2sc(C(=O)O)cc2c1N1CCc2[nH]nc(C(=O)N[C@@H](CC(=O)NCCOCCN3CCOCC3)c3cccc(Br)c3)c2C1,"IL1R1 (Homo sapiens, UniProt P14778)",reporter gene,,,IC50,> 100 µM
CC[C@H](C)[C@H](NC(=O)[C@H](CC(C)C)NC(=O)[C@H](CCCNC(=N)N)NC(=O)c1ccc(CN2CCNCC2)cc1)C(=O)N[C@@H](Cc1ccccc1)C(N)=O,"G1/S-specific cyclin-D1, with CDK4 (Homo sapiens, UniProt P24385)","binding to cyclin groove, inhibitor, fluorescence polarization competition",,,IC50,11.7 ± 5.92 µM
CCOc1cncc(-c2ccc(NC(=O)C(CC)c3ccnc(NS(=O)(=O)C4CC4)n3)nc2)n1 (stereo not shown),"Ctps1 (Mus musculus, UniProt P70698)",cell viability,CTPS-null Jurkat with mouse CTPS1,3 days,IC50,0.018 µM
COc1cc(-c2nc3ccc(C(=O)NCCN4CCN(C5CCCCC5)CC4)cc3n2C2CCC2)cc(OC)c1OC,"ACVRL1 (Homo sapiens, UniProt P37023)","target engagement in cells, BRET",,,IC50,> 30 µM
COc1ccc(CCCN[C@H]2CCC[C@@H]2CN[C@H]2CCC[C@@H]2CNCCCCN[C@@H]2CCC[C@H]2CN)cc1,"MAOA (Homo sapiens, UniProt P21397)","enzyme activity, inhibitor",,,Ki,310 µM
CC[C@H](C)[C@H](NC(=O)[C@H](CO)NC(=O)[C@H](Cc1ccc(O)cc1)NC(=O)[C@H](CC(=O)O)NC(=O)[C@H](CO)NC(=O)[C@@H](NC(=O)[C@H](Cc1ccccc1)NC(=O)[C@@H](NC(=O)CNC(=O)[C@@H]1CCCN1C(=O)[C@H](C)NC(=O)[C@@H](N)Cc1ccc(O)cc1)[C@@H](C)O)[C@@H](C)CC)C(=O)N[C@@H](C)C(=O)N[C@@H](CCSC)C(=O)N[C@@H](CC(=O)O)C(=O)N[C@@H](CCCCN)C(=O)N[C@H](C(=O)N[C@@H](Cc1c[nH]cn1)C(=O)N[C@@H](CCC(N)=O)C(=O)N[C@@H](CCC(N)=O)C(=O)N[C@@H](CC(=O)O)C(=O)N[C@@H](Cc1ccccc1)C(=O)N[C@H](C(=O)N[C@@H](CC(N)=O)C(=O)N[C@@H](Cc1c[nH]c2ccccc12)C(=O)N[C@@H](CC(C)C)C(=O)N[C@@H](CC(C)C)C(=O)N[C@@H](C)C(=O)N[C@@H](CCC(N)=O)C(=O)N[C@@H](CCCCN)C(=O)NCC(=O)N[C@@H](CCCCN)C(=O)N[C@@H](CCCCN)C(=O)N[C@@H](CC(N)=O)C(=O)N[C@@H](CC(=O)O)C(=O)N[C@@H](Cc1c[nH]c2ccccc12)C(=O)N[C@@H](CCCCN)C(=O)N[C@@H](Cc1c[nH]cn1)C(=O)N[C@@H](CC(N)=O)C(=O)N[C@H](C(=O)N[C@H](C(=O)N[C@@H](CCC(N)=O)C(=O)O)[C@@H](C)O)[C@@H](C)CC)C(C)C)[C@@H](C)CC,"Gastric inhibitory polypeptide receptor (Rattus norvegicus, UniProt P43219)","ligand displacement in cells, radioligand",,,IC50,0.0158 µM
CC(=O)N[C@@H](CC(C)C)C(=O)N[C@@H](CC(=O)O)C(=O)N[C@H](C(=O)N1CCC[C@H]1C(=O)N[C@H](C=O)CC(=O)O)C(C)C,Caspase-2 circularly permuted,"enzyme activity, inhibitor",,"pH 6.5, 37 °C, added: Z-VDVAD-AFC",Ki,0.0219 µM
COc1ccc(S(=O)(=O)N(CC(=O)O)c2ccc(N(CC(=O)O)S(=O)(=O)c3ccc(OC)cc3)cc2)cc1,"Kelch-like ECH-associated protein 1, Kelch domain (KEAP1, Homo sapiens, UniProt Q14145)","Keap1-Nrf2 interaction, inhibitor, fluorescence polarisation",,,IC50,1.25 µM
NS(=O)(=O)Nc1ncnc(OCCOc2ncc(Br)cn2)c1-c1ccc(Br)cc1,,M6 formation,"male Beagle dog, liver microsomes",50 mg/kg daily for 4 weeks,Km,10 ± 1.7 µM
CN(C)c1ccc2c3c(cccc13)C(=O)N(CCS)C2=O,"blaNDM-1 (Klebsiella pneumoniae, UniProt C7C422)","enzyme activity, inhibitor",,pH 7,IC50,2.4 µM
[64Cu+2].c1cnc(CNCc2ccc(CN3CCCN4CCNCCCN(CC4)CC3)cc2)nc1,CXCR4,,"NOD/SCID mouse, U87 and U87-stb-CXCR4 xenografts, lungs","iv, 90 min, ex vivo, added: AMD3465 25 mg/kg sc before tracer",tissue uptake,2.21 ± 0.56 %ID/g

# Repeated from above:
Structure (SMILES),tested on,assay,test system,setting,quantity,value
N#Cc1cnc2sc(C(=O)O)cc2c1N1CCc2[nH]nc(C(=O)N[C@@H](CC(=O)NCCOCCN3CCOCC3)c3cccc(Br)c3)c2C1,"IL1R1 (Homo sapiens, UniProt P14778)",reporter gene,,,IC50,> 100 µM
